Experimental data from different studies.
± marks the error that the study gave.

The viability of CC(C)=CCn1c(-c2ccccc2)cc2ccccc21 is reported as 113% (HEK293; cell growth or viability; 50 µM).
NC(=O)NCCC[C@@H](NS(=O)(=O)c1ccc(OCc2cc(Br)cc(Br)c2)cc1)C(=O)NO: “lowest concentration inhibiting shedding” 5 to 10 µM (L-428; item: soluble NKG2D ligands; 24 h).
The sub-G1 cells of COc1ccc2c(NC(C)=O)c(C(=O)c3cc(OC)c(OC)c(OC)c3)oc2c1 is reported as 12 ± 3% (K562; flow cytometry; IC50).
CCCCN(CCCC)c1ccc(C2Nc3ccc(Br)cc3NC3=C2C(=O)CC(C)(C)C3)cc1 (stereo not drawn) has an EC50 of ~13 µM (H4; cytoprotection; together with: thapsigargin 7.5 µM).
O=Cc1c(-c2ccccc2)[nH]c2ccccc12 has a viability of 139% (HEK293; cell growth or viability; 50 µM).
O=C1c2c(O)ccc(O)c2C(=O)c2c(NCCNCCO)ccc(NCCNCCO)c21 has a combination index of 0.89 ± 0.1 (RS4-11; 72 h, together with: cytotoxic drug; below 1 means synergy).
For COc1cccc2c1C(=O)c1c(O)c3c(c(O)c1C2=O)C[C@@](O)(C(=O)CO)C[C@@H]3O[C@H]1C[C@H](N)[C@H](O)[C@H](C)O1, the drug effluxed was ~20% (KB 3-1; flow cytometry; 5 µM, 2 h plus 2 h washout).
O=c1[nH]cc(F)c(=O)[nH]1 has an ID50 of 0.037 ± 0.006 µg/mL (mES-D3 cell; cardiomyocyte differentiation, RT-PCR, item: MHC; 240 h).
For `RBRBRBRBRBRBRBRBB (PMO conjugate)`, the cellular uptake was 60 (pLuc705 cells; flow cytometry; peptide; 2 µM, 24 h, serum-free, unit not given; higher = more uptake).
CC[C@@]1(O)C[C@H](O[C@H]2C[C@H](N(C)C)[C@H](O[C@H]3C[C@H](O)[C@H](O[C@H]4CCC(=O)[C@H](C)O4)[C@H](C)O3)[C@H](C)O2)c2c(cc3c(c2O)C(=O)c2c(O)cccc2C3=O)[C@H]1C(=O)OC gave a combination index of 0.91 ± 0.03 (RS4-11; 72 h, together with: cytotoxic drug; below 1 means synergy).
`LRRFSTMPFMFININNVINF` gave an inhibition of 98.58 ± 0.12% (HUVEC; cell adhesion, real-time cell analysis; peptide; 100 µM, 3 h; baseline: vehicle).
Under “cytosolic Ca2+ increase”, C[C@](Cc1c[nH]c2ccccc12)(NC(=O)OC1[C@H]2C[C@@H]3C[C@@H](C[C@H]1C3)C2)C(=O)NC[C@H](NC(=O)CCC(=O)O)c1ccccc1 (stereo partly drawn) is recorded as “inhibited” (NCI-H727; inhibited, antagonist, Fura-2 AM; 1 µM, together with: CCK-8 10 nM).
For CC(=O)O[C@H]1C(=O)[C@@]2(C)[C@H]([C@H](OC(=O)c3ccccc3)[C@]3(O)C[C@H](OC(=O)[C@H](O)[C@@H](NC(=O)c4ccccc4)c4ccccc4)C(C)=C1C3(C)C)[C@]1(OC(C)=O)CO[C@@H]1C[C@@H]2O, “proliferation and colony formation” read “no effect” (PC-9 expressing CD8-EGFR-CL; 2.5 nM; baseline: parental PC-9 cells).
With COc1ccc(C2=Nn3c(nnc3-c3[nH]nc4c3CCC4)SC2C)cc1 (stereo not drawn) the GI50 was 0.2 µM (CAL-33; cell growth or viability).
With C#C[C@@]1(O)[C@@H](CO)O[C@@H](n2cc(I)c3c(N)ncnc32)[C@@H]1O the GI50 was 0.28 µM (SR; cell growth or viability, SRB; 48 h).
CCn1c(C)cs/c1=N/N=C(\C)c1ccccn1 has an inhibition of 56.4% (Vero; cell growth or viability, SRB; 100 µg/mL, 48 h).
For COCn1c(-c2ccccc2)cc2ccccc21, the viability was 107% (HEK293; cell growth or viability; 50 µM).
With C[C@H](C(=O)Oc1ccc(-c2cc(=S)ss2)cc1)c1ccc2cc(OC(=O)CCCO[N+](=O)[O-])ccc2c1 the IC50 ratio was ~147 fold (HPDE and BxPC-3; cell growth; 24 h; baseline: HPDE over BxPC-3).
For O=C(/C=C/N1[C@H]2CC[C@@H]1c1ncnc(NC3CC3)c1C2)c1ccccc1O, the effective concentration was 5 µM (C2C12 myoblasts; myoblast differentiation).
`Ac-ARGCA-NH2 (N-acetyl, C-amide)` has an ID50 of 500 µM (GM7373 bovine endothelial; cell proliferation, inhibitor; peptide; 24 h, together with: 0.55 nM FGF2, 0.4% FCS).
For COc1cc2ncnc(Nc3cccc(Cl)c3)c2cc1OC, “cell growth inhibition” read “inhibited” (BON; [3H]-thymidine uptake; 1 µM, 24 h, pre-treatment, together with: GI hormones, EGF or TGFα).
The GI50 of CCn1c(=O)c(-c2cc(NC(=O)Nc3ccccc3)c(F)cc2Br)cc2cnc(NC)cc21 is reported as 0.269 µM (U-118-MG; cell growth or viability).
With CC1(C)CC(=O)C2=C(C1)Nc1cc(Br)ccc1NC2c1ccc(N2CCCC2)cc1 (stereo not drawn) the EC50 was > 50 µM (H4; cytoprotection; together with: thapsigargin 7.5 µM).
Cn1c(-c2ccccc2)cc2ccccc21 has an inhibition of 0% (HEK293 NF-κB luciferase reporter; reporter gene, item: NF-κB; 50 µM, 6 h, together with: TNFα).
For `Ac-GRPCG-NH2 (N-acetyl, C-amide)`, the ID50 was 1000 µM (GM7373 bovine endothelial; cell proliferation, inhibitor; peptide; 24 h, together with: 0.55 nM FGF2, 0.4% FCS).
`VCTGSC` gave an adherent cells of 3% (bovine aortic endothelial cells; peptide; 2 µg coated per well, 30 to 60 min; baseline: thrombospondin-coated wells).
COc1ccc(C(C)=NNC(=O)COc2ccc3c(C)cc(=O)oc3c2C)cc1OC has a TNF-α level of 1.14 fold (LPS-stimulated human macrophages; ELISA; conditioned medium; 5.3 µmol/mL, 48 h; baseline: dexamethasone, reduction).
`Ac-ARPCA-NH2 (N-acetyl, C-amide)` gave an ID50 of 15 µM (GM7373 bovine endothelial; cell proliferation, inhibitor; peptide; 24 h, together with: 0.55 nM FGF2, 0.4% FCS).
CCN(CC)c1ccc(C2Nc3ccc(C(=O)c4ccccc4)cc3NC3=C2C(=O)CC(C)(C)C3)cc1 (stereo not drawn) gave an EC50 of 11.4 ± 2.26 µM (H4; cytoprotection; together with: thapsigargin 7.5 µM).
Under macropinocytic uptake, Cc1ccc(NC(=O)c2ccc(CN3CCN(C)CC3)cc2)cc1Nc1nccc(-c2cccnc2)n1 is recorded as “decreased” (LNCaP expressing Abi1 Y213F; 2 µM, 2 h, together with: 10 ng/mL PDGF).
Cn1c(=O)c(F)c(Nc2ccc(I)cc2F)c2c(=O)n(C[C@@H](O)CO)cnc21 gave a therapeutic window of 1.8 (NIH3T3 in PANC/NIH microtissues; fibroblast toxicity; 168 h, chronic toxicity, unit not given; baseline: AC50 ATP over AC50 NanoLUC, day 7).
For C/C(=N\N=c1/[nH]c(C)cs1)c1ccccn1, the inhibition was 65.5% (Vero; cell growth or viability, SRB; 100 µg/mL, 48 h).
C(=NOCc1ccccc1)c1c(-c2ccccc2)[nH]c2ccccc12 has an inhibition of 50.2 ± 3.9% (HEK293 NF-κB luciferase reporter; reporter gene, item: NF-κB; 50 µM, 6 h, together with: TNFα).
For CN(C)c1ccc(C2Nc3ccc(C(F)(F)F)cc3NC3=C2C(=O)CCC3)cc1 (stereo not drawn), the EC50 was > 50 µM (H4; cytoprotection; together with: thapsigargin 7.5 µM).
The ID50 of `Ac-ALPCA-NH2 (N-acetyl, C-amide)` is reported as > 1000 µM (GM7373 bovine endothelial; cell proliferation, inhibitor; peptide; 24 h, together with: 0.55 nM FGF2, 0.4% FCS).
For Cc1cc(NC(=O)c2cccc(NC(=O)/C=C/CN(C)C)c2)ccc1Nc1nccc(-c2cccnc2)n1, “phosphorylation of FMN1 Ser-Pro sites” read “inhibited” (HEK-293T expressing GFP-FMN1; JNK pathway, inhibitor, LC-MS/MS; 5 µM, 1 h pretreatment, together with: anisomycin 10 µg/mL for 1 h).
For c1cncc(-c2cc3ccccc3[nH]2)c1, the inhibition was 12.3 ± 4.4% (HEK293 NF-κB luciferase reporter; reporter gene, item: NF-κB; 50 µM, 6 h, together with: TNFα).
With `ANKHYF` the adherent cells was 0% (bovine aortic endothelial cells; peptide; 2 µg coated per well, 30 to 60 min; baseline: thrombospondin-coated wells).
`LRRFSTMPFMFANINNVANF` gave an inhibition of 48.6 ± 0.53% (HUVEC; cell proliferation, WST-1; peptide; 100 µM, 72 h; baseline: vehicle).
Under “cells with early S-phase foci”, `exonuclease 1 (human)` is recorded as 28% (NIH3T3; confocal microscopy, item: YFP-tagged compound; concentration not given, PCNA replication foci, together with: co-transfected CFP-PCNA).
For C=C(C[C@H](N)C(=O)O)C(=O)NC1CC1, “lowest significantly active concentration” read 10 µM (MCF7 cells; cell growth inhibition; 72 h; baseline: vehicle).
The viability of CC(C)=CCc1c(-c2ccccc2)n(CC=C(C)C)c2ccccc12 is reported as 105% (HEK293; cell growth or viability; 50 µM).
With `TCVCGS` the adherent cells was 6% (bovine aortic endothelial cells; peptide; 2 µg coated per well, 30 to 60 min; baseline: thrombospondin-coated wells).
Fc1cc(F)cc(-c2cc3ccccc3[nH]2)c1 gave an inhibition of 62.3 ± 8.3% (HEK293 NF-κB luciferase reporter; reporter gene, item: NF-κB; 50 µM, 6 h, together with: TNFα).
`Ac-ESLARPCAPGAPAE-NH2 (N-acetyl, C-amide)` has an ID50 of 20 µM (GM7373 bovine endothelial; cell proliferation, inhibitor; peptide; 24 h, together with: 0.55 nM FGF2, 0.4% FCS).
